Experimental data collected from several papers.
Each numbered part is a random draw from the data of one study; scales do not carry over between parts.

Study 1
Target: Sal-like protein 4, full length isoform A (SALL4, Homo sapiens, UniProt Q9UJQ4, residues 1-1053)
UniProt Q9UJQ4, sequence (whole entry, looked up): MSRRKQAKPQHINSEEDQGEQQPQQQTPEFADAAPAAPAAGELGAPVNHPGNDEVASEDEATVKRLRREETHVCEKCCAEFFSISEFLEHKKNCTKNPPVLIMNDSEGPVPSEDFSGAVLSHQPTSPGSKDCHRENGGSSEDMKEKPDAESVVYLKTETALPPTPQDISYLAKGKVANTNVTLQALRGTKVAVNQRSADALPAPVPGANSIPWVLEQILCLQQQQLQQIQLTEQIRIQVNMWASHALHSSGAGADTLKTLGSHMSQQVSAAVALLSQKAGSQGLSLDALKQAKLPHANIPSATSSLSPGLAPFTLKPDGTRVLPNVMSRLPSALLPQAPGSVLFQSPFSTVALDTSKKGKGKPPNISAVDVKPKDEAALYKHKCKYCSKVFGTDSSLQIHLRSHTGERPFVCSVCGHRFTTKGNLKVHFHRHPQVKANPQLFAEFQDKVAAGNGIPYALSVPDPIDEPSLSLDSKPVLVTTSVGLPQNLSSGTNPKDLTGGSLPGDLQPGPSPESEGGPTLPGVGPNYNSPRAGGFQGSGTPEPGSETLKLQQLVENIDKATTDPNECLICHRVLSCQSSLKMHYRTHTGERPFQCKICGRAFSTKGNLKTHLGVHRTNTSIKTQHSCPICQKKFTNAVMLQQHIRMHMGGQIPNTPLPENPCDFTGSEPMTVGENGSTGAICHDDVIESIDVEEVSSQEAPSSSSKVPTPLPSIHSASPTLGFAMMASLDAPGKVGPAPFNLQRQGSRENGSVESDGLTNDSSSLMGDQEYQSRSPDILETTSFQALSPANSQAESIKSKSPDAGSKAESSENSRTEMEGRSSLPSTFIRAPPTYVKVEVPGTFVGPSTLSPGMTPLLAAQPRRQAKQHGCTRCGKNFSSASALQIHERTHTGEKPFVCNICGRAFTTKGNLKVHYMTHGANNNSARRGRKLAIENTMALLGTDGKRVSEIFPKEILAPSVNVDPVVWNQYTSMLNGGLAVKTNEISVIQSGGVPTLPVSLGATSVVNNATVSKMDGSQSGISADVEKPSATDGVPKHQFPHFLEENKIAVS
Method: universal PBM
Form: double-stranded DNA, one strand shown
Matrix: in vitro
Tested at: 600 nM
Notes: 8-mer, flanks averaged, mean of replicates
Reading: higher = stronger binding
Sequence | E-score
ACCGGGAC | -0.263
ACTAAATA | 0.367
ATCCAATA | 0.189
ACGCCTCT | -0.119
GATATTTA | 0.394

Study 2
Target: Ras GTPase-activating protein-binding protein 1, full length (G3BP1, Homo sapiens, UniProt Q13283)
UniProt Q13283, sequence (whole entry, looked up): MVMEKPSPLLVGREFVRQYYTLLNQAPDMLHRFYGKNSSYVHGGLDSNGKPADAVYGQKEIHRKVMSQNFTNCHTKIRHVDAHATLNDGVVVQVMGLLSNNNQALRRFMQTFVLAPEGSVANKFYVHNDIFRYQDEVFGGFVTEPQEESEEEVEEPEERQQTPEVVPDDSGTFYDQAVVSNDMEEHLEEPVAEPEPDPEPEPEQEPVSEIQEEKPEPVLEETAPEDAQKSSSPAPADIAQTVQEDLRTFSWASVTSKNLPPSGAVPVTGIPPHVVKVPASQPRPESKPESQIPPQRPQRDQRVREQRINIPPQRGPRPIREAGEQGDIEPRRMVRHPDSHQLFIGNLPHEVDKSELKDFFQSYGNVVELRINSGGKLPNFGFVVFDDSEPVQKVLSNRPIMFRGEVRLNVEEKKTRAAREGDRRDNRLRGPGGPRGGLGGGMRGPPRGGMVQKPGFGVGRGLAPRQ
Method: RNA Bind-n-Seq
Form: RNA
Matrix: in vitro
Tested at: 200 nM
Notes: whole 134-nt RNA, ends assumed
With: 150 mM KCl
Reference: input library
Reading: higher = stronger binding
Sequence | log2 enrichment
GGGAGUUCUACAGUCCGACGAUCGCAGGAAGUAAAAACAAAAGGAAAUGCUUCGGAUAGUGGCAGGGGUGGGGGUUGCUAAGGAAAGGGUGGGAUGGGAGUGGGUAAAGAGUUUGGAAUUCUCGGGUGUCAAGG | 0.998
GGGAGUUCUACAGUCCGACGAUCAGUCCUGUGCUACACAUCGUAUGUACCGAAUCGGCCCCCGGCCCCCGGGCCCCCGGGGAAAGUAUUAUGUUACGCCGUUCGGAUCUGCACUGGAAUUCUCGGGUGUCAAGG | -0.759
GGGAGUUCUACAGUCCGACGAUCCAAGUCCUGUGCUACACAUCGUAUGUACCGAAUCGGGCCCGGGCCCGGGCCCGGGGAAAGUAUUAUGUUACGCCGUUCGGAUCUGCACUUUGGAAUUCUCGGGUGUCAAGG | -1.67

Study 3
Target: Histone acetyltransferase KAT6A, winged helix 1, GST fusion (KAT6A, Homo sapiens, UniProt Q92794, residues 1-85)
Method: protein binding microarray
Form: double-stranded DNA, one strand shown
Matrix: in vitro
Tested at: not given
Notes: 8-mer, flanks averaged, mean of 2 arrays, mostly near background
Reference: not given
Reading: higher = stronger binding
Residues (chain): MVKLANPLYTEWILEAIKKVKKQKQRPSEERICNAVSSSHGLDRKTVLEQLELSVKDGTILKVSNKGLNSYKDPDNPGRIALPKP
Sequence | E-score
AGTTGTGG | -0.218
GGTATTAC | 0.0816
GGTCGAAA | -0.0953

Mixed results
Molecule | target | assay | system | conditions | how to read | measurement | result
PhoQ, residues 284 288 289 292 302 303 SQSLSM | PhoP, residues 12 14 15 18 19 AQALL (Escherichia coli, UniProt P23836) | Sort-seq, item: YFP reporter | E. coli | PhoQ-PhoP variant library, with: 10 µM Mg2+ | reference: high Mg2+ state, higher = stronger signaling | fold induction | 9.83

Some of these lines once more (study 3):
Sequence | E-score
AGTTGTGG | -0.218
GGTATTAC | 0.0816
